Published values collected from several papers.
Numbered parts are unrelated; each lists some results of a single study.

Study 1
Target: RNA binding protein fox-1 homolog 2, RRM domain, GST-SBP tag (RBFOX2, Homo sapiens, UniProt O43251-10, residues 100-194)
Technique: RNA Bind-n-Seq
Molecule type: RNA
Matrix: in vitro
Concentration: 365 nM
Setting: natural RNA segment, single round, ends assumed
Reference: no-protein control
Direction: higher = stronger binding
Quantity: RBNS enrichment (R)
Target sequence (chain): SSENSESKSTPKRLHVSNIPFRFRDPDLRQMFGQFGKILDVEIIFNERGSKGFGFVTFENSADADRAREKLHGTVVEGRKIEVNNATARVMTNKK
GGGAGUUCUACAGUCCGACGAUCUCACCCCGGAUGCCCGGGACCUUGCCAAAAAGUUUCUGAAGCGGAACCCCACUCAGCGAAUUGGGGGUGGCCUGGGAGAUGCUGCUGAUGUCCAGAGGCACCCCUUUUUCUGGAAUUCUCGGGUGCCAA: 0.398
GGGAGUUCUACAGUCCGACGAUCGCGCAGUCAGAGGAUGGAGUCUGAUGUCUUCCGGCUGCUGCCUUUGUGGGCAGAGCUAAUCCAAGUUACUGUUCUCUGUUCAAAUGAAGCAGCUUCAGGAGAAAAAGAGCUGGAAUUCUCGGGUGCCAA: 0.305
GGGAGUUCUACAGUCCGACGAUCCCCCCACGGGGGUUCACUAGGUUUGGGCCUGAGAACACCUGUCUGGACAAAGGUGAUGAAACCAAGAGAGCUCCUGCCUUCUUGCCUGCCUACGUGAACCACCUGGGUCUUGGAAUUCUCGGGUGCCAA: 0.66
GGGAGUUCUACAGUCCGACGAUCACACUUCUGUUAAAAUGCAGGAGGUAGUGUCAUAAUGCCGUCUUUAUAUUCUUAAUAAAUAGCACUUUGACAAGAACAGGACUGUAAAUGAUGAAGUACAAGACAAAUACUGGAAUUCUCGGGUGCCAA: 0.462
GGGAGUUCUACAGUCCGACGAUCUUGAGUUCAAGUGAAAGAUUCUUCCAGGGUUUUAUUUUUUCCCCUCCUAACAAAGUCUCAUAGUGUUAACACUGGUUCUGCAAUAUCUCUGAGGUGCAAAGAAUGCACUUUGGAAUUCUCGGGUGCCAA: 0.804
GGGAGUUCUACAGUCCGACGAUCUUUAUUUGCAGGACUAGAAUAAAAAGUUUAAACAUUACAGUAUUUCUGAGCAAACAAAUGUGCUCCAUUCUUUUCCUCCAUGCUCCUAGCGCAGAAUGUUUUCUUGCAGAUGGAAUUCUCGGGUGCCAA: 0.822
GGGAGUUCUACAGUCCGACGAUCUUUCAGAAUGUGGAAGUUACUAGGCCUGUCAAGCCAUCACUUCACCCCAAGAUCUCCAGUUUUAGAAGAGACCUGCACAUAAGAGGACUUCAUGUCAAGAUCACUACAACUGGAAUUCUCGGGUGCCAA: 0.302

Study 2
Target: Ras GTPase-activating protein-binding protein 1, full length (G3BP1, Homo sapiens, UniProt Q13283)
UniProt Q13283, sequence (whole entry, looked up): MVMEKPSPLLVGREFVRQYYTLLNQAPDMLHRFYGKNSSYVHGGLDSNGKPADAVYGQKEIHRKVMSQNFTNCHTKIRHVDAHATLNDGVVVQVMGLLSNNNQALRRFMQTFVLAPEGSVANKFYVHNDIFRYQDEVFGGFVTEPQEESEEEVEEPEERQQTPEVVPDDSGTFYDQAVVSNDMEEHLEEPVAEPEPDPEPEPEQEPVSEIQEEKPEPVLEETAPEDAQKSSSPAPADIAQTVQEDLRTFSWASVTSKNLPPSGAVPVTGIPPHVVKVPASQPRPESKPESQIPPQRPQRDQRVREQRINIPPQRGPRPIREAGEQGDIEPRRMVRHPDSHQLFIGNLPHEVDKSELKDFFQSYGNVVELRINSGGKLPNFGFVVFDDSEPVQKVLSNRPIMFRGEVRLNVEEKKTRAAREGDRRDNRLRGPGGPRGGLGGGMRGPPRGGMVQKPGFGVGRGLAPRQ
Technique: RNA Bind-n-Seq
Molecule type: RNA
Matrix: in vitro
Concentration: 200 nM
Setting: whole 134-nt RNA, ends assumed
Added: 150 mM LiCl
Reference: input library
Direction: higher = stronger binding
Quantity: log2 enrichment
Library: 7-deaza-guanosine replaces G
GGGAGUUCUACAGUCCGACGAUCGCAGGAAGUAAAAACAAAUGGAAAUGCUUCGGAUAGUGGCAGGGGUGGGGGUUGCUAAGGAAAGGGUGGGAUGGGAGUUGGUAAAGAGUUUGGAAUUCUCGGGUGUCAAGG: -0.00809
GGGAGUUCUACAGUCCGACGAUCGCAGGAAGUAAAAACAAAUGGAAAUGCUUCGGAUAGUGGCUGGGGUGGGGGUUGCUAAGGAAAGGGUGGGAUGGGAGUGGGUAAAGAGUUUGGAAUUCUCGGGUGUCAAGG: 0.384
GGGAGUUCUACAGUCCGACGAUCUCCUGUGCUACACAUCGUAUGUACCGAAUCAAACCCCCAAACCCCCAAAUUUUUUUAAAAAAGUAUUAUGUUACGCCGUUCGGAUCUGCAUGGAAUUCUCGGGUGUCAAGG: 1.05
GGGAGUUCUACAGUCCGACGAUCCCUGUGCUACACAUCGUAUGUACCGAAUCGGGGUUUUUUUGGGGAGGGGAAAAAAAGGGGAAAGUAUUAUGUUACGCCGUUCGGAUCUGCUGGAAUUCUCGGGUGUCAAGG: 0.563
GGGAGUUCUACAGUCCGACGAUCACCAUGCAGGUGGGCAUCUUUGGGAAGUGGGGCAAGGGGGGGAUAGGGAGGGGGGUAACACUUUGGGAACAGUUGGUCCCAGGUCGUUUCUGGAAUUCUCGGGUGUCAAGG: 0.324
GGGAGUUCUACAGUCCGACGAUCCUGUGCUACACAUCGUAUGUACCGAAUCGGGGUUUUUUUGGGUUUUUUUGGGGUUUUUUUGGAAAGUAUUAUGUUACGCCGUUCGGAUCUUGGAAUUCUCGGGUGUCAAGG: 1.63
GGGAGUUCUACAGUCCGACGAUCCACAGACAACACGCACCCACACAGACACAGAGGGAAGGGGUUGGGACGGGGACAGGGUGCACAGCAGGGCGGGGUAGGACCCCAGCCCCUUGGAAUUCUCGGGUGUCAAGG: 0.523
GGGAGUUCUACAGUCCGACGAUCGGCACCCUUUGAAGGGGAGGAUGAAGAUGAACUCUUCCAAUCCAUCAUGGAACACAACGUAGCCUAUCCCAAGUCUAUGUCCAAGGAAGCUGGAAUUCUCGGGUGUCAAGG: 0.172

Study 3
Target: Interferon regulatory factor 7, full length, phosphomimetic (IRF7, Homo sapiens, UniProt Q92985, residues 1-503, S101K/S471D/S472D/S475D/S476D/S477D/S483D/S484D/S487D)
Technique: protein-binding microarray
Molecule type: double-stranded DNA, one strand shown
Matrix: in vitro
Concentration: 250 nM
Setting: 60-bp whole probe
Added: salmon DNA 0.4 mg/ml
Reference: random background probes
Direction: higher = stronger binding
Quantity: log fluorescence
All sequences stand within: GCCTAGCAC … GTCTTGATTCGCTTGACGCTGCTG
Residues (chain): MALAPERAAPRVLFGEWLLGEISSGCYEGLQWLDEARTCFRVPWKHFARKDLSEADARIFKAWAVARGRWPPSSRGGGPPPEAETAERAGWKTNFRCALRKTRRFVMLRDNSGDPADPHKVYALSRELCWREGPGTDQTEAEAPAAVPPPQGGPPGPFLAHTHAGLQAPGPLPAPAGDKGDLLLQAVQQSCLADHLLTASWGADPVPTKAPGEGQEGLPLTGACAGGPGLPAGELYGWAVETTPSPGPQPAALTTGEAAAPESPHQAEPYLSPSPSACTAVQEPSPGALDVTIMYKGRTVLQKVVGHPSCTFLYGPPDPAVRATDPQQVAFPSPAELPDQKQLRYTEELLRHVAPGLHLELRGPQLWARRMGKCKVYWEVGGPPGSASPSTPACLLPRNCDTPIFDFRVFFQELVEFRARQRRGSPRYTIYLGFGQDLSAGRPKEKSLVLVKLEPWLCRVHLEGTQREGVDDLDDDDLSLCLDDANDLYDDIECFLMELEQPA
GACGGTTTCGGGTATCTGGACGTGCTA: 6.77 z-score
TCATATATATATTATATAACTGTGCTA: 0.726 z-score
GACGGACTGGATTTTCGGGACGTGCTA: -0.731 z-score
GACGGTTTCAGTTTCGGGACGTGCTAG: 7.71 z-score
TTAGATTTCAGTTCCGATTTGTGCTAG: 4.08 z-score
TTAGGTCTCGGTCTCGGATAGTGCTAG: 1.67 z-score
GACGAGCTGAGTATCGAGACGTGCTAG: -0.4 z-score
TTAGGTATCCTATTGCTTTAGTGCTAG: 0.703 z-score
TTAGGTTTCGACTATAGGTTAGTGCTA: 4.38 z-score

Single results of other studies
PhoQ, residues 284 288 289 292 302 303 SACGEM — fold induction (PhoP, residues 12 14 15 18 19 LWHVM (Escherichia coli, UniProt P23836); Sort-seq, refers to: YFP reporter; E. coli; PhoQ-PhoP variant library, added: 10 µM Mg2+; reference: high Mg2+ state, higher = stronger signaling): 20.6

For quick reference, copied from above (study 1):
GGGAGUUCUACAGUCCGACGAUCGCGCAGUCAGAGGAUGGAGUCUGAUGUCUUCCGGCUGCUGCCUUUGUGGGCAGAGCUAAUCCAAGUUACUGUUCUCUGUUCAAAUGAAGCAGCUUCAGGAGAAAAAGAGCUGGAAUUCUCGGGUGCCAA: 0.305
